Results of several laboratories.
Every numbered part comes from another study and shows a few of its results, in no order.

Sample 1 — method: RNA Bind-n-Seq; molecule type: RNA; medium: in vitro; tested at: 365 nM; relative to: no-protein control; direction: higher = stronger binding
Target: RNA binding protein fox-1 homolog 2, RRM domain, GST-SBP tag (RBFOX2, Homo sapiens, UniProt O43251-10, residues 100-194)
Setting: natural RNA segment, single round, ends assumed
Oligonucleotide | RBNS enrichment (R)
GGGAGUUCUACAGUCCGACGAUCGAAAUCAUAUUAUAAAUAUUUCAACUAAUUUUACUCUGAAUUUGUUUAUUAAAAGCUUUUUGAACAUUAAAUUAUUAUUUCUUCAAUGCAUUUAGAAGUUAGAACAGAAAUGGAAUUCUCGGGUGCCAA | 1.31
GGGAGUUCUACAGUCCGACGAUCAAUCCCAGGAACCACUAGCAGUAGUGGGGCGCCACCAAUGUAACAUGAGCACAGGUGCCUCAUGGCAAACAUGGCUGGCAUGUUCAACUGCAUAAUGCUCUGGCACUGUAUGGAAUUCUCGGGUGCCAA | 0.435
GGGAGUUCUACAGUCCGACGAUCUCUCCUCCCUGGACAAGGCUCAGUGGACCAUCAGAUGGAGGAAGACUGGCCCCAUUGCUUGAGCCCCUGUGCGACCCUUGACCUCCAGCCUUAGUUCUCCUGGAAGCUGCUGGAAUUCUCGGGUGCCAA | 0.441
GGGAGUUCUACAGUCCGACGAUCACCACUAGUAAGCUUUGUUCAUGCAGCUCAUAGUCCUCCCAAACAUAUGGGGAAUGUGUGUUUAUGUACCAGAUGGGGAGUGUUGAGGGGAUAUGGUGGCUCUGUGAUCUUGGAAUUCUCGGGUGCCAA | 5.84
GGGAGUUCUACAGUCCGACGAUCUGGCACUCGCUGAAGAAUCUGGAAGGUUGCGGUUUGCUCUUCCAGUGUUCGGGGGCCUCUGGCUGCUGAAGGAUUCGGUCUACCACGGAGGGCUGUGCUGUUAGGCUGCAUGGAAUUCUCGGGUGCCAA | 1.31
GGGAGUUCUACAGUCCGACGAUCUUCAGCUGACUUUGUCUACAAGGAUUAUUAGCAAAUUCUGUAGGAGCAAGCAUGUCUGACCUUAACUUAAUGGAUCCCUUAUUCAAUCAGUGGCUUCUGUCUUUAUGUCUUGGAAUUCUCGGGUGCCAA | 1.6
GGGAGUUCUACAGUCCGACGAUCGCCUGGCCCUGGCUCCCUCCAACCAGCUGCUCCUGGGACACAGGUGCUCCUGCUUCGGCUCUGUUUCGGCUCACAGGUGUGCAUCACUGGGCUUGGAUUUGCAUUACAUUUGGAAUUCUCGGGUGCCAA | 1.23
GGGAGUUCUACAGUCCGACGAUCGUGAUUCUGCUCUCCAGGGACGGUUGGCACCUUCCUCGGGGGCGGGCCCCACGCACCCCAGAACACACAGACCCACCUUUCUGGCGUUCUUUCUACCUCCCUUUUCGUUGUGGAAUUCUCGGGUGCCAA | 0.462

Sample 2 — method: protein-binding microarray; molecule type: double-stranded DNA, one strand shown; medium: in vitro; tested at: 0.8 µM; setting: whole 60-bp probe, no competitor; direction: higher = stronger binding
Target: Centromere-binding protein 1, full length, N-terminal tag (CBF1, Saccharomyces cerevisiae, UniProt P17106, residues 1-351)
Sequence of UniProt P17106 (whole entry, looked up): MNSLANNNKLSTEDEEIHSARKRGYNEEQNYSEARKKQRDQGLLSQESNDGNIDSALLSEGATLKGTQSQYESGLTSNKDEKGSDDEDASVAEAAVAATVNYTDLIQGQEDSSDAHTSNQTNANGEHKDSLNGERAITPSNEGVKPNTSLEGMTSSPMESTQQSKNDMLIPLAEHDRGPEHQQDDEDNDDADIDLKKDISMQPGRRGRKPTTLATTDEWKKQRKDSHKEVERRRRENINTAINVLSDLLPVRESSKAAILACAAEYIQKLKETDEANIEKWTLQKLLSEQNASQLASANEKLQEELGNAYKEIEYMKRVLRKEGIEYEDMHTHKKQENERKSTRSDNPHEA
Oligonucleotide | fluorescence intensity [a.u.]
GAAAGGAACCTTATCGACGTGACAGCAAAGCGGTAGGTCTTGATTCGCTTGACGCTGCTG | 612
GAACTGTGAAGGTGACACGGTAACTTGCAGACTTAGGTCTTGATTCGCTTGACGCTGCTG | 555
CTACACATAGAAAGACACGTGGAAATAACAGTCTTCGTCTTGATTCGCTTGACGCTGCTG | 2320
GAATAGGATATCCGTCACCCGTGATTCCGTCGGTAGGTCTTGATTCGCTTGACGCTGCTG | 952
CTATAGACAAAAAGACACGGGACATCTTCTATCTTCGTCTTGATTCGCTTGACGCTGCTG | 763
GAATGGCACATACACCACCACATTCAATCATATTAGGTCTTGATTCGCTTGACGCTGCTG | 505
GAATCTTCCAGCTTAAACGTGCTTCGTCACTCGTAGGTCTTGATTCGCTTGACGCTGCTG | 553
CTAATATACTAGTATCACGAATATTACTAAATGTTCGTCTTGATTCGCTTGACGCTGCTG | 514

Sample 3 — observed: enzyme activity; mode: inhibitor; tested at: 20 µM; setting: primary screen
Target: Replicase polyprotein 1ab, main protease (rep, Severe acute respiratory syndrome coronavirus 2, UniProt P0DTD1)
Compound | inhibition [%]
C[C@@H]1O[C@@H](Oc2c(-c3cc(O)c(O)c(O)c3)oc3cc(O)cc(O)c3c2=O)[C@@H](O)[C@H](O)[C@H]1O | 90.6
CO[C@@H]1[C@H](OC(=O)NC(=O)CCl)CC[C@]2(CO2)[C@H]1[C@@]1(C)O[C@@H]1CC=C(C)C | 64.9
CCN(CC)c1ccc(C(=C2C=CC(=[N+](CC)CC)C=C2)c2ccccc2)cc1 | 98.2
NCCc1cc(O)c(O)cc1O | 82.3

Sample 4 — observed: enzyme activity; mode: inhibitor; tested at: 20 µM
Target: Replicase polyprotein 1ab, polymerase (rep, Severe acute respiratory syndrome coronavirus 2, UniProt P0DTD1)
SMILES | inhibition
O=C(Nc1ccc(Cl)cc1)Nc1cccc(-c2cccc(N3CCCC3)n2)c1 | 2.66%
Nc1cc(F)ccc1NC(=O)c1ccc(CNC(=O)/C=C/c2cccnc2)cc1 | -2.09%
COc1cc2c3cc1Oc1cc(ccc1O)C[C@@H]1c4c(cc(OC)c(O)c4Oc4ccc(cc4)C[C@@H]3N(C)CC2)CC[N+]1(C)C | 0.11%
C[C@@H](O[C@H]1OCCN(Cc2nn(P(=O)(O)O)c(=O)[nH]2)[C@H]1c1ccc(F)cc1)c1cc(C(F)(F)F)cc(C(F)(F)F)c1 | 42.6%
Cc1c(N)nc([C@H](CC(N)=O)NC[C@H](N)C(N)=O)nc1C(=O)N[C@H](C(=O)N[C@H](C)[C@@H](O)[C@H](C)C(=O)N[C@H](C(=O)NCCc1nc(-c2nc(C(=O)NCCC[S+](C)C)cs2)cs1)[C@@H](C)O)[C@@H](O[C@@H]1O[C@@H](CO)[C@@H](O)[C@H](O)[C@@H]1O[C@H]1O[C@H](CO)[C@@H](O)[C@H](OC(N)=O)[C@@H]1O)c1cnc[nH]1 | 2.5%
CC1(CN2CCC(n3c(=O)[nH]c4ccccc43)CC2)OCc2ccccc2-n2cccc21 (stereo not drawn) | -12.4%
COc1cc2c(Nc3ccc(NC(=O)c4ccccc4)cc3)ncnc2cc1OCCCN1CCOCC1 | 5.24%
CCc1c2c(nc3ccc(O)cc13)-c1cc3c(c(=O)n1C2)COC(=O)[C@]3(O)CC | 3.96%
Cc1ccc(C(=O)Nc2ccc(CN3CCN(C)CC3)c(C(F)(F)F)c2)cc1C#Cc1cnc2[nH]ncc2c1 | -6.66%
CCCc1c(OCC(O)COc2ccc3c(=O)cc(C(=O)O)oc3c2CCC)ccc(C(C)=O)c1O (stereo not drawn) | -2.02%
Nc1ncnc2c1ncn2[C@@H]1O[C@H](CO)C[C@H]1O | -4.88%
CC(C)[N+](C)(CCOC(=O)C1c2ccccc2Oc2ccccc21)C(C)C | 31.6%
COc1ccccc1N1CCN(CCN(C(=O)C2CCCCC2)c2ccccn2)CC1 | -3.89%
COc1ccc(Cc2cnc(N)nc2N)cc1OC | -6.41%
CC1(C)S[C@@H]2[C@H](NC(=O)COc3ccccc3)C(=O)N2[C@H]1C(=O)O | 29.7%
CC(=O)[C@H]1CC[C@H]2[C@@H]3C[C@H](C)C4=CC(=O)CC[C@]4(C)[C@H]3[C@@H](O)C[C@]12C | 19.4%
CC(=O)c1ccc(NS(C)(=O)=O)c(Oc2ccc(F)cc2F)c1 | -2.57%
CO/N=C(\N)c1ccc(-c2ccc(-c3ccc(/C(N)=N/OC)cc3)o2)cc1 | 3.94%
CCN(CCNC(=O)Nc1ccccc1Br)c1cccc(C)c1 | 19.4%
COC(=O)Nc1nc2cc(C(=O)c3cccs3)ccc2[nH]1 | 2.64%
Cc1cc(S(=O)(=O)O)c2c(C)ccc(C(C)C)cc1-2 | 2.76%
CCCn1c(=O)[nH]c2nc(-c3ccc(S(=O)(=O)O)cc3)[nH]c2c1=O | 10.1%
C=CCNc1ncnc2ccc(Br)cc12 | 4.63%
CC(C)[C@@H](CN1CC[C@@](C)(c2cccc(O)c2)[C@@H](C)C1)NC(=O)[C@H]1Cc2ccc(O)cc2CN1 | -0.52%
N=C(N)c1cc2ccc(OC(=O)c3cccs3)cc2s1 | 12.2%

Sample 5 — method: RNA Bind-n-Seq; molecule type: RNA; medium: in vitro; tested at: not given; setting: RNA with constant flanks, ends assumed; relative to: input RNA pool; direction: higher = stronger binding
Target: RING finger protein unkempt homolog, zinc fingers 1-6, GST-SBP tag (UNK, Homo sapiens, UniProt Q9C0B0, residues 30-357)
Sequence of UniProt Q9C0B0 (30-357, looked up): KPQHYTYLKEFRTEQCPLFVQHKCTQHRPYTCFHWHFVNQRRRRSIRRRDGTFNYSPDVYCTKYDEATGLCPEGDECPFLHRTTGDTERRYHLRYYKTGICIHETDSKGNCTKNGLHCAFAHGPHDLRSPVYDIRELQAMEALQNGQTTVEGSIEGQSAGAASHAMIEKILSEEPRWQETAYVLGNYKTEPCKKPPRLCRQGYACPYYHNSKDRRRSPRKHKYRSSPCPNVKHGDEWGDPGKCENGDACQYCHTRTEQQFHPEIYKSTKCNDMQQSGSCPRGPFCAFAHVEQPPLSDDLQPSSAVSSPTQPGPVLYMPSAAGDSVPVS
Oligonucleotide | bound/input enrichment [ratio]
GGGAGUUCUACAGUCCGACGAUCUUUAGUGACUAUGGUAAGCUUUUGUUCAUUUGUUUCAGACUUUUUUCUCCUGUAAAAAAACCGUACUGAUUAACUUUUUUAAAAGAAAGAUUUUACUGUAAAUAUGGAUUUUUUUUUUUUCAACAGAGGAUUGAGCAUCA | 1.52
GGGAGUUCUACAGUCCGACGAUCCUCCGUCUGCGAUGCAGGGCGGCGGCCUGUAAUCCCAGCGACCGCCAGGAGUGGCAGAAUUCCGUGACAUUUGGAAGCUUUUCAAACAUGGUUCCCUGUAGUCAUCCAUAUAUUGGUACCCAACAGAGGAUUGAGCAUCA | 0.636
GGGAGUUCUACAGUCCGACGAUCACAUCUGCAGAUAAAGUGGAGAGUCUGGAUGUGGAUAGUGAAGCUAAGAAACUAUUGGGUUCCGGACAGAAACAUCUGGUGAUGGGGGAUAUUCCAGCAGCUGUCAAUGCAUUCCAGGAACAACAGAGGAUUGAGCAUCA | 0.215
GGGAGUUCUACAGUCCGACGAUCUUCAAAGCCUUACGUCGACAGUUGCCAGUUACACGCACUAAGAUUGAUUGGAACAAGAUCCUCCGCUACAAGAUUGGCAAAGAGAUGCAGAAUGCAUAAGAUGAACAUUGCAUGACCGGACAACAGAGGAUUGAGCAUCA | 0.212
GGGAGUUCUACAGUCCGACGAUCCUGUGUGUGCUGAAUAAAUGGCUUGUAAAGAAGUUUUUCCAAGCUGUAACCCAUGCUGUUAUUACCGUUGCUGCAAAAUGUUCUUCCUGAUAUUGAUUUUAUUUGUUAACUGAAGGUCUCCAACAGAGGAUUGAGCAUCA | 0.437

Sample 6 — cell line: HEK-293T; organism: VSV pseudotyped with SARS-CoV-2 spike; tested at: 10 µM; time: 16 h
Structure (SMILES) | pseudovirus infection
O=C1CCc2ccc(OCCCCN3CCN(c4cccc(Cl)c4Cl)CC3)cc2N1 | 71%
CN[C@H](CC(C)C)C(=O)N[C@H]1C(=O)N[C@@H](CC(N)=O)C(=O)N[C@H]2C(=O)N[C@H]3C(=O)N[C@H](C(=O)N[C@H](C(=O)O)c4cc(O)cc(O)c4-c4cc3ccc4O)[C@H](O)c3ccc(c(Cl)c3)Oc3cc2cc(c3O[C@@H]2O[C@H](CO)[C@@H](O)[C@H](O)[C@H]2O[C@H]2C[C@](C)(N)[C@H](O)[C@H](C)O2)Oc2ccc(cc2Cl)[C@H]1O | 94.5%
NCCc1c[nH]cn1 | 91.3%
Clc1ccccc1C(c1ccccc1)(c1ccccc1)n1ccnc1 | 80.5%
